Experimental data of several laboratories.
Parts stem from different laboratories: compare values within a part only. Substitutions count along the parent as printed.

Series 1
Target: CCND1, cyclin fold, Cln2 fusion (human)
Technique: yeast growth competition, sequencing
Matrix: yeast
Notes: weak parent motif
Reference: not given
Reading: higher = stronger binding
Parent: SAMHD1 docking peptide (human); ASKSRVQLFKDDP; partner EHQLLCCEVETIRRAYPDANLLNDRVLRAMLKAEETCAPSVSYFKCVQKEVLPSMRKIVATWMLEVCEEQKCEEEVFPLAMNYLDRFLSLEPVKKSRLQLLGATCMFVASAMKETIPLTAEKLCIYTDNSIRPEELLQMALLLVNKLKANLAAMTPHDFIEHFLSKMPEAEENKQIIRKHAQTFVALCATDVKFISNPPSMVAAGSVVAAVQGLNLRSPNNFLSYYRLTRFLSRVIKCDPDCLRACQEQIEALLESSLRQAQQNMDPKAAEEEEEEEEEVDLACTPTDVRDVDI
Variant	normalised enrichment score
K10N	0.492
S4D	0.147
Q7I	0.175
F9M	0.505
Q7D	-0.311
K10P	0.544
K3M	0.609
F9Q	0.274
F9G	-0.141
Q7M	-0.0498
V6R	1.03
Q7K	0.75
L8E	0.277
S2Y	0.706
F9W	0.275

Series 2
Target: ABI1, truncated, D143A, DHFR fusion (Arabidopsis thaliana)
Technique: DHFR PCA, deep sequencing
Matrix: yeast
Notes: methotrexate growth selection, single substitutions
Added: (+)-ABA 0.0091 µM
Reference: wild-type fitted maximum
Reading: higher = stronger binding
Parent: PYL1, truncated, DHFR fusion (Arabidopsis thaliana); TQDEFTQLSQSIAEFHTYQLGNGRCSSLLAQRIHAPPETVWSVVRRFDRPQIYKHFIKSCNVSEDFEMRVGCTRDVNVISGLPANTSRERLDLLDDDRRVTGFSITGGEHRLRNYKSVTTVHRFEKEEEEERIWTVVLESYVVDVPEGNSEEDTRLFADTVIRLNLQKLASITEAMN
Variant	relative binding score [%]
L156E	1.72
P83H	7.19
P146W	-0.165
L28E	3.81
L169N	-1.39
M68G	-0.614
A84G	46.1
E131R	56.3
A170G	-0.574
R46V	-2.61
I57D	-7.46

Series 3
Target: RING finger protein unkempt homolog, zinc fingers 1-6, GST-SBP tag (UNK, Homo sapiens, UniProt Q9C0B0, residues 30-357)
UniProt Q9C0B0, sequence (30-357, looked up): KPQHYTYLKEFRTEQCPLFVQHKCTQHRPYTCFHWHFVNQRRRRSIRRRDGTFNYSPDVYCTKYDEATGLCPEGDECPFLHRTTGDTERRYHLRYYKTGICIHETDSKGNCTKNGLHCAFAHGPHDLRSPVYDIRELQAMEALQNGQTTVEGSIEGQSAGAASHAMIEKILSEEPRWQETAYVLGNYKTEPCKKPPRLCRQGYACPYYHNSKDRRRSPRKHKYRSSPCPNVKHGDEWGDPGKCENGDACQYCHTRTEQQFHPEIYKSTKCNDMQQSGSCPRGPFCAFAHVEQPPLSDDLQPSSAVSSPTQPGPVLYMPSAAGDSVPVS
Technique: RNA Bind-n-Seq
Form: RNA
Matrix: in vitro
Tested at: not given
Notes: RNA with constant flanks, human-mouse chimeric sites, ends assumed
Reference: input RNA pool
Reading: higher = stronger binding
Shared flanks, not repeated: GGGAGUUCUACAGUCCGACGAUC … CAACAGAGGAUUGAGCAUCA
Oligonucleotide	bound/input enrichment [ratio]
GGGUGGGUGGUCAUUGCCGUUUGAGCUGCUGAUUUUCAUGAGUCGCCUUCAAAACUCUCGUGUAGGGUUGACAAUGUGGGGGGGUGGGGGAUCCAGCUUAUUCUUUUAUUUUCAAGUCCA	0.294
AAAGAGUGGAUAGAGUGUGCACACGGGAUCGGUGGGACCCGGGCGAAAAAGGAGUGCAAGAUAGAGUUCGAUGACUUCGAAGAGUGCUUGCUUCGGCACAAAACGAUGAGACGUGCACAU	0.267
GUUGCCAGCUUCCGGUUCCGUUGGGCUCGGUUCUCUCAGUGCUACGUUGUCUCUACGCUCUCAAUCCGCCAUCCAACGGCAGUCAUGCAGGUAAUGCAGUUUGUGGAGCCCAGCCGGCAG	0.109
AAAGUGGACUAUGGCGAGUACAUGGAUAAAAAUAAUGUGAGGCGACAAGCAACAACAAUCAUAGCUGAUAACAUUAUAUUUCUGAGUGACCAGACAAAAGAAAAGGCAUAGAACGGAUGA	1.49
AUUGUUGAAGCGAAUCCACUUUUAGAAGCCUUUGGAAAUGCAAAGACUGUUCGCAACAAUAAUAGCAGUCGAUUUGGAAAAUUUGUAGAAAUACAUUUCAAUGAAAAGAGUUCGGUUGUU	0.245
AUGGAAAAGGAUUCUCUGCCCCGCUUUGUGCGCUCUGAAUUUUAUAAGGAGCUAAUCAAGUAGUCAUCUGGUCAGGCUUCCAAAAGUUGCCCUGUGAGUUGAGUUACAUCCUUUGUAGCA	0.192
UUUCUACUGCAGCAAACGAUGCUAAGAGUGAAGGAUCCUAAGAAGUCCCUGGAUUUUUAUACUAGAGUUCUUGGACUGACCCUCCUGCAGAAGCUUGACUUCCCUGCUAUGAAGUUCUCG	0.163

Series 4
Target: Histone acetyltransferase KAT6A, winged helix 1, GST fusion (KAT6A, Homo sapiens, UniProt Q92794, residues 1-85)
Technique: protein binding microarray
Form: double-stranded DNA, one strand shown
Matrix: in vitro
Tested at: not given
Notes: 8-mer, flanks averaged, mean of 2 arrays, mostly near background
Reference: not given
Reading: higher = stronger binding
Residues (chain): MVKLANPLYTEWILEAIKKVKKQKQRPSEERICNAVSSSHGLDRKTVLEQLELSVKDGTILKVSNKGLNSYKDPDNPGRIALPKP
Oligonucleotide	E-score
AAATGACG	0.1
AGCGGGAA	0.328
CAGACTGC	-0.0671
AGAGCCCT	-0.111
CATTGGAA	-0.151
ACCAACAA	-0.183
GTACCGAA	-0.00427
CCAATATA	-0.0921
TGTAGGAA	-0.138
ACATCTCG	-0.133
ACCTGGAG	-0.142
CCATATCG	0.15
CACGCCAC	0.00012
CTACGTTA	0.00813
CCTCCGGA	-0.111
AAGGGCGG	0.168

Series 5
Target: Centromere-binding protein 1, full length, N-terminal tag (CBF1, Saccharomyces cerevisiae, UniProt P17106, residues 1-351)
UniProt P17106, sequence (whole entry, looked up): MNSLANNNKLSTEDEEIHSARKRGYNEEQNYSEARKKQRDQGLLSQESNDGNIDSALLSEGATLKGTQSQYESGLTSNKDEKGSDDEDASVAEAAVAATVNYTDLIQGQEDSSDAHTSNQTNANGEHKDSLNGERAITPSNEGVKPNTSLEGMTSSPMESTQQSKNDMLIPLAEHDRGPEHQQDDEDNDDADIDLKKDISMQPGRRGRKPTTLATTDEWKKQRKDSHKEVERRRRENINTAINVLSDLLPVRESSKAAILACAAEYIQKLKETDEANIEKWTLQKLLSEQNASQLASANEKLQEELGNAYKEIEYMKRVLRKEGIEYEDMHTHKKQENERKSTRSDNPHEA
Technique: protein-binding microarray
Form: double-stranded DNA, one strand shown
Matrix: in vitro
Tested at: 0.8 µM
Notes: whole 60-bp probe, no competitor
Reading: higher = stronger binding
Shared flanks, not repeated: … GTCTTGATTCGCTTGACGCTGCTG
Oligonucleotide	fluorescence intensity [a.u.]
GAAACGCATGTTTCTCATGTGTTACCCGTCCTTTAG	697
CTATGGCTAGCGTCAAACGTCACCGATCTCTATTTC	519
CTATACCCACAGCAGTGCATGATGACCCAAAACTTC	559
GAAATTTTGGCAAATTCACTCACGTGAGGGCGTTAG	11800
CCTAACTACTATATCCACGTGGAATAGCTTCGTACA	3710
GAAAATTGCATGATTCAGCTGACTGCATATGTGTAG	1190
CTAAAATCTATGGGTCATGTGCTCTATAATTCCTTC	4900
GAAGCTGATACAGGGCACGTGAGAGGTCACTGATAG	5300
CTAGTATTTTTTGCGAACGTGGAAGTATTTCACTTC	617

Series 6
Target: PABPC1L2, full length, GST fusion (mouse, UniProt A0ABA7IW68)
Technique: RNAcompete
Form: RNA
Matrix: in vitro
Tested at: 20 nM
Notes: 7-mer, probes averaged, single round
Reference: mean of 7-mers
Reading: higher = stronger binding
Residues (chain): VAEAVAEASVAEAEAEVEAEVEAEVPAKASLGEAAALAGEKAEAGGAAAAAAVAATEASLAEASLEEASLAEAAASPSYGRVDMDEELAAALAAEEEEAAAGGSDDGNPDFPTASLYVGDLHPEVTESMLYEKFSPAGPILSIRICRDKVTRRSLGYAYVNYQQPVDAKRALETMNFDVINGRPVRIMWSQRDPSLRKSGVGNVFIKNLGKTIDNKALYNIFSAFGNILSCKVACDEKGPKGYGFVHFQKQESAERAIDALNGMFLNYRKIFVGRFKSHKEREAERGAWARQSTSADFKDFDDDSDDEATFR
Oligonucleotide	7-mer Z-score
CCGGUCA	-0.193
GGAGAAC	0.289
GACGCCU	-0.28
UAGAAAG	1.04
CGACGGC	0.037
AAGUUCU	-0.103
CUGUGAG	-0.213
UGCAUUA	-0.0826
CCCAGAG	-0.0953
CGCUAAC	-0.248
AGUAGUC	-0.197
UGAGCAA	0.0334

Series 7
Target: Interferon regulatory factor 5, full length, phosphomimetic (IRF5, Homo sapiens, UniProt Q13568-2, residues 1-514, K96S/S451D/S453D/S456D/S462D)
Technique: protein-binding microarray
Form: double-stranded DNA, one strand shown
Matrix: in vitro
Tested at: 250 nM
Notes: 60-bp whole probe
Added: salmon DNA 0.4 mg/ml
Reference: random background probes
Reading: higher = stronger binding
Shared flanks, not repeated: GCCTAGCAC … GTCTTGATTCGCTTGACGCTGCTG
Oligonucleotide	log fluorescence
TTAGGTTTCGGGTATGGGTTAGTGCTA	8.89 z-score
GACGGACTGGGGACTTGGGACGTGCTA	-0.58 z-score
TATGGCTTCAAGTAACTACAGTGCTAG	-0.0597 z-score
GACGGGTTCGGGACTGGGGACGTGCTA	-0.623 z-score
TCATCTTTTTTTCTTTTACTGTGCTAG	1.79 z-score
TTAGTTTTCAGTCTCGATTAGTGCTAG	4.04 z-score
TCATTTCTCTTTCACTGACTGTGCTAG	5.73 z-score
TTAGGTATAGACTATCGGTTAGTGCTA	5.66 z-score
TTAGGTTTCGGATATCGGTTAGTGCTA	8.09 z-score
TCAGCTACACATCTCACACTGTGCTAG	-0.000364 z-score
TCAATTTTCCAAATGCCACTGTGCTAG	0.575 z-score
TTAGGTATCAGTTTCGGTTAGTGCTAG	10.3 z-score
TCAATTTTAGTTTTCATACTGTGCTAG	1.87 z-score
TGAAGTTTTAATAACACAGAGTGCTAG	0.174 z-score
TTAGAACTGAGGATCGATTAGTGCTAG	0.0883 z-score
CTGTTTCTGTGTCACAGAGGGTGCTAG	4.4 z-score
CCAATTCTTTTTATGCTTTCGTGCTAG	1.7 z-score

Series 8
Target: RNA binding protein fox-1 homolog 2, RRM domain, GST-SBP tag (RBFOX2, Homo sapiens, UniProt O43251-10, residues 100-194)
Technique: RNA Bind-n-Seq
Form: RNA
Matrix: in vitro
Tested at: 365 nM
Notes: natural RNA segment, single round, ends assumed
Reference: no-protein control
Reading: higher = stronger binding
Shared flanks, not repeated: GGGAGUUCUACAGUCCGACGAUC … UGGAAUUCUCGGGUGCCAA
Target sequence (chain): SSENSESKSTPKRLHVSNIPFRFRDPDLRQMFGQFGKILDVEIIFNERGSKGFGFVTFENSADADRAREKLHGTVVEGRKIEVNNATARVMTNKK
Oligonucleotide	RBNS enrichment (R)
CCUUCUUAACAAGUAUAGUCAUGGCACCACGUAACAUUUUGGUCAAUGACAUUGUAUAAAGGGUGGUCUCAUAAGAUUAUACCAUAUUUUUACUGUACCUUUUCUAUGUC	0.466
AGCCUGGCUCUCAGAAGCCACGUUAGCGUCUCUCUCUCCUGCUGAUCGCUCGACACAGCACCUUUUCUAAAGAAAAAAAAAUCUUUUUUCCAGUUAACUUUGCAUCUUCA	1.97
UAGUCCUACCACUAGAGGGCAUGGUACAGCCUGGCAAAAGUUAAAAGGGGUGUGGCAGCUCCCAUCAGGUCUGGAGGUGGUCUAUAAGCACAGUUGACAGUUGUGCAUUG	0.619
AGCGACUGAGCACACCCUCUGCCAGCACCUACUGGGGAAAGGAAAAGCCCCUGGAAAUGCGUGUGACCUGUGAAGUGGUGUAUUGUCACAGUAGCUUAUUUGAACUUGAG	0.43
AUACAUGACAUUCUUUGGGAAUUUGGUGGCCACUGCUUCAGUCACCUCUGUUUUUCUGAAGGCUGUUCCAGCAGGGCUGCCCUGUUCAUCAGCGGAUGUUCACUCUGGCC	0.262
UACAUAAAAUGAUUUUAGUUCAGUUUUAACCAGUGAAAACUUUGUUUUUAUGAAAAAAAAGGAAAAUGGUUUCCCAUUUGGUUUUAUAUGUGUUAAAUAAAUGUGUAAAG	0.842
ACAGCGGAAAGUGGACCUGCCAGGCCGGGAGUGUGUCCCUCACCAACUAUGCACACAGCACUCGCUCUUAGCUCCUCUGUCCGGGCUACUAGGAGUGAGACCAGCUUCUG	0.292

Repeated from above (series 2):
Variant	relative binding score [%]
L156E	1.72
R46V	-2.61
I57D	-7.46
A84G	46.1
E131R	56.3
L169N	-1.39
P146W	-0.165
L28E	3.81
A170G	-0.574
P83H	7.19
M68G	-0.614
